# Results of several laboratories.
# Each numbered part is a random draw from the data of one study; scales do not carry over between parts.
# Sequence of UniProt Q6P2M8 (whole entry, looked up): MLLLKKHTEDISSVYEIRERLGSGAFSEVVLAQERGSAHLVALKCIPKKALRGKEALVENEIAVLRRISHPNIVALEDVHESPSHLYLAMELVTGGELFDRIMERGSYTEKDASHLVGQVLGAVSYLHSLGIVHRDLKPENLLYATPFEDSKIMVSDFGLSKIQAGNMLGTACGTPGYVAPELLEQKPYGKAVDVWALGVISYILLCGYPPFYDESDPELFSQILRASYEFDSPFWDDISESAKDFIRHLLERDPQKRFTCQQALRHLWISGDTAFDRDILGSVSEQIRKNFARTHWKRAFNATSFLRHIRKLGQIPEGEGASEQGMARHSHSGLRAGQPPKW
# Sequence of UniProt O75914 (whole entry, looked up): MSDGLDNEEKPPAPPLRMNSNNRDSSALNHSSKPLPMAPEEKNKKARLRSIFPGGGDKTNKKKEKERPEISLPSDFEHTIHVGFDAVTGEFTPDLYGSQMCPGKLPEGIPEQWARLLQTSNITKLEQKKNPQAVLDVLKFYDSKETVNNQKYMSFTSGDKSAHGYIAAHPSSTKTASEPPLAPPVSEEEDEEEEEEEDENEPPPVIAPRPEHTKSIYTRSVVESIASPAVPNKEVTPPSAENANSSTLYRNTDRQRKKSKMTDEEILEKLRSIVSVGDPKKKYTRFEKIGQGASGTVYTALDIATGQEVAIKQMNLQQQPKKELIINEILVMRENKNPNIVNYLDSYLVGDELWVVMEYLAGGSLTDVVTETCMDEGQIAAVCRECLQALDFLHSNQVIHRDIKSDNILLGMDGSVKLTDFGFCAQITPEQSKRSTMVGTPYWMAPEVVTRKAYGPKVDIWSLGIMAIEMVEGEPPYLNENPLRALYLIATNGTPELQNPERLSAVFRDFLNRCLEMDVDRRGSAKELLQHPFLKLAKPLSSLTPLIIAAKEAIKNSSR
# Sequence of UniProt P50750 (whole entry, looked up): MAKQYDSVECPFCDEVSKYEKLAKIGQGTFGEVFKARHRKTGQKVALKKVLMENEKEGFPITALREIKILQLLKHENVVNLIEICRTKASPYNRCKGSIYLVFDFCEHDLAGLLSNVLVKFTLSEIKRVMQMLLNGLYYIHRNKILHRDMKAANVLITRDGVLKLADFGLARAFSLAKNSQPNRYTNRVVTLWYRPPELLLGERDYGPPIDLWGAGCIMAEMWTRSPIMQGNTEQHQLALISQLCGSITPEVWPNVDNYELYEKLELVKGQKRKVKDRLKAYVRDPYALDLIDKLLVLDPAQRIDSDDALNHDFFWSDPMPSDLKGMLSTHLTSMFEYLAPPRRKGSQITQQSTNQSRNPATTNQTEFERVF
# Sequence of UniProt Q8N752 (whole entry, looked up): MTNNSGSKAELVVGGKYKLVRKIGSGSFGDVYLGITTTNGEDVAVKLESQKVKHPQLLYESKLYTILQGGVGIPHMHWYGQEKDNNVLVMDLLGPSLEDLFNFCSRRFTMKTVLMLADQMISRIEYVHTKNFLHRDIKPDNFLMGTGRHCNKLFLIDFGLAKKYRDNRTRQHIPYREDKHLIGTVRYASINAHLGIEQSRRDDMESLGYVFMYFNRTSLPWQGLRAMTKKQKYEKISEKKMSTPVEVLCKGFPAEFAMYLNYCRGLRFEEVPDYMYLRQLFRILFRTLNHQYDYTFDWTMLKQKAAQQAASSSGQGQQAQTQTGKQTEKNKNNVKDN
# Sequence of UniProt Q96L34 (whole entry, looked up): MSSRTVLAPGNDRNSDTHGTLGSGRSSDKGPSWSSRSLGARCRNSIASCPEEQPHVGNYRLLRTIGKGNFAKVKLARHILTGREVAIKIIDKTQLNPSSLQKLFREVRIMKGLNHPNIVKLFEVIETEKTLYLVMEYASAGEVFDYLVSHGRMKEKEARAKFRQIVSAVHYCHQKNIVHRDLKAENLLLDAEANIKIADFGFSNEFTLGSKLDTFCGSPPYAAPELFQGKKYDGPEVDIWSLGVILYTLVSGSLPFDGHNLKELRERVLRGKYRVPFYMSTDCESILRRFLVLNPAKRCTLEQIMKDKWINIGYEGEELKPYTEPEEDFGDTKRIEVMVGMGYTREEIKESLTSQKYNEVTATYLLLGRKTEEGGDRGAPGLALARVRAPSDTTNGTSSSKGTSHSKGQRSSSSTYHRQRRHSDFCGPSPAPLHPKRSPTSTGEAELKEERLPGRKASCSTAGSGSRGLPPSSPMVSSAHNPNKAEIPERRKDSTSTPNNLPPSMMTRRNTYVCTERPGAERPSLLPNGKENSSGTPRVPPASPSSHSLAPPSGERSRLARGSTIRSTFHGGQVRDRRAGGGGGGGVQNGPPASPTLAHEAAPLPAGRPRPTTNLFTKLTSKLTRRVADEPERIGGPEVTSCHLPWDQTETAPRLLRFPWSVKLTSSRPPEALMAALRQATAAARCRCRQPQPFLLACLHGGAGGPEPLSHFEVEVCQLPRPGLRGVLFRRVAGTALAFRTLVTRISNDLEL
# Sequence of UniProt P08581 (whole entry, looked up): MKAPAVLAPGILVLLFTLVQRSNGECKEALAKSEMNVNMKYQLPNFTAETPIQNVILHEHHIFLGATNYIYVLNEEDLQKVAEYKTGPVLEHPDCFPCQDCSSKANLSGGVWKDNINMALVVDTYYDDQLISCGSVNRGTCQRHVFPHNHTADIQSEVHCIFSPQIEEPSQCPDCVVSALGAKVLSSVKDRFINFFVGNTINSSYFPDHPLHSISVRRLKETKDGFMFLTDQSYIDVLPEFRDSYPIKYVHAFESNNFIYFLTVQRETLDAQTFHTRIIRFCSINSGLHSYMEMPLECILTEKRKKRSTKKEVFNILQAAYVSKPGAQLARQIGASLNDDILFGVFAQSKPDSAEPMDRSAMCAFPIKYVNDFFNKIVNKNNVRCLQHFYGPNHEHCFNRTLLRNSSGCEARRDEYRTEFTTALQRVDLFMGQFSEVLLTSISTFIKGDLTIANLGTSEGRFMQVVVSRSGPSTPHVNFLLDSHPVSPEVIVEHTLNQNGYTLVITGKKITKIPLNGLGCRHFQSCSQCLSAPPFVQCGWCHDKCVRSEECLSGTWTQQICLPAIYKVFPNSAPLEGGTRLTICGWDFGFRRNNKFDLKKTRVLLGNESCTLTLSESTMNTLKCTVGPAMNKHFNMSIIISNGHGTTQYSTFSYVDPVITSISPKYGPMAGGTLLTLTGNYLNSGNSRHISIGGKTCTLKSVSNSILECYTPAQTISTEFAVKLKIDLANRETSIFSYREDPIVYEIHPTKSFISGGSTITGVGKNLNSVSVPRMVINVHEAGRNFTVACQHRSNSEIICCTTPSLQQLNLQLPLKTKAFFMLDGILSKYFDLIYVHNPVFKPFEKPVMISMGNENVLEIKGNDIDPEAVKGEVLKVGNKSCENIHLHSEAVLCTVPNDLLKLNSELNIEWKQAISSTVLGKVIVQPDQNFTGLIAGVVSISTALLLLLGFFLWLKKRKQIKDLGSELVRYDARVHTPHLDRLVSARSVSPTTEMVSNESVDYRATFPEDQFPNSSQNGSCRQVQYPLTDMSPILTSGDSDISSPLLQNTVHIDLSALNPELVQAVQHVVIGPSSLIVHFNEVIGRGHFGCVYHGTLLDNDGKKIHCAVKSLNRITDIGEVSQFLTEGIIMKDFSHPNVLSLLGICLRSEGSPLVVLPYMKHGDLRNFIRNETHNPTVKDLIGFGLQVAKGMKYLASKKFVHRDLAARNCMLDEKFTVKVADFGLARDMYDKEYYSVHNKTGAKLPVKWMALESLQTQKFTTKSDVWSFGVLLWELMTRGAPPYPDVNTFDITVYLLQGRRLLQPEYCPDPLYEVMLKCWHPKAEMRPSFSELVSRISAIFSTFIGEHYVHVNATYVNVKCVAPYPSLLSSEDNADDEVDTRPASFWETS
# Sequence of UniProt P32298 (whole entry, looked up): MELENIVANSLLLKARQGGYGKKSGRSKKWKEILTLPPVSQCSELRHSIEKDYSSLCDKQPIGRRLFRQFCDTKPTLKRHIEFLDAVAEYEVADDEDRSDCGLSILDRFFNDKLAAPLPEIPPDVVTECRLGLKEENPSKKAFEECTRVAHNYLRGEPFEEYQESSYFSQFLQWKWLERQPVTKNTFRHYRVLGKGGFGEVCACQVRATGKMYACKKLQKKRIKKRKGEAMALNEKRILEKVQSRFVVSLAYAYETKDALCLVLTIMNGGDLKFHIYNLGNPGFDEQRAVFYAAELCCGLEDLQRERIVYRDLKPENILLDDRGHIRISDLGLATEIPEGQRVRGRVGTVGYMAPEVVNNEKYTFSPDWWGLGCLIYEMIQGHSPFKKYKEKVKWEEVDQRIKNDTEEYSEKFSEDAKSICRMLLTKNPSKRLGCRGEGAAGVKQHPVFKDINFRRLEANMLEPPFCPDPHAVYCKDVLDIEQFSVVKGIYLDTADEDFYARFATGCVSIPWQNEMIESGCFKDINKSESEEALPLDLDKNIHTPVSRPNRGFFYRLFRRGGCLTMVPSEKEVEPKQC
# Sequence of UniProt Q9HBH9 (whole entry, looked up): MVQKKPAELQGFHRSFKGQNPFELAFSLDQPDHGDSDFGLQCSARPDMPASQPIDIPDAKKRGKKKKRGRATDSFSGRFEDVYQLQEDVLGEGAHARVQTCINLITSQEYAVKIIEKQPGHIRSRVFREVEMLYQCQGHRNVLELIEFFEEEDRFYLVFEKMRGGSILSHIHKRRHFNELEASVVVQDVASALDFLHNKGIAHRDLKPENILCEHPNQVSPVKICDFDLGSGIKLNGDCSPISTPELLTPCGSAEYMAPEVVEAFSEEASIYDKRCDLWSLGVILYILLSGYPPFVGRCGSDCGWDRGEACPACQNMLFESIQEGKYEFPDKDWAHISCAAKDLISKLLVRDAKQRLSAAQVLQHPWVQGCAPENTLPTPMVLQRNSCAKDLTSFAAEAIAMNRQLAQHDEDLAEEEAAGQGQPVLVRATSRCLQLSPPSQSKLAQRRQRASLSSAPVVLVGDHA

# Set 1
# SMILES: CN(C)CCCn1cc(C2=C(c3c[nH]c4ccccc34)C(=O)NC2=O)c2ccccc21
# Observed: enzyme activity
# Action: inhibitor
# Concentration: 0.5 µM
# Reference: control
target,remaining activity
"Serine/threonine-protein kinase DCLK2 (DCLK2, Homo sapiens, UniProt Q8N568)",95%
"Calcium/calmodulin-dependent protein kinase type IV (CAMK4, Homo sapiens, UniProt Q16566)",89.5%
"Calcium/calmodulin-dependent protein kinase type 1B (PNCK, Homo sapiens, UniProt Q6P2M8)",106%
"Mitogen-activated protein kinase 14 (MAPK14, Homo sapiens, UniProt Q16539)",90.7%
"Serine/threonine-protein kinase PAK 3 (PAK3, Homo sapiens, UniProt O75914)",92.1%
"Serine/threonine-protein kinase Nek3 (NEK3, Homo sapiens, UniProt P51956)",110%
"Misshapen-like kinase 1 (MINK1, Homo sapiens, UniProt Q8N4C8)",92.1%
"Hepatocyte growth factor receptor (MET, Homo sapiens, UniProt P08581)",102%
"Cyclin-dependent kinase 9, with cyclin K (CDK9, Homo sapiens, UniProt P50750)",60.3%
"G protein-coupled receptor kinase 4 (GRK4, Homo sapiens, UniProt P32298)",84.5%
"Serine/threonine-protein kinase MRCK beta (CDC42BPB, Homo sapiens, UniProt Q9Y5S2)",90.8%
"MAP/microtubule affinity-regulating kinase 4 (MARK4, Homo sapiens, UniProt Q96L34)",66.9%
"RAC-beta serine/threonine-protein kinase (AKT2, Homo sapiens, UniProt P31751)",88.7%

# Set 2
# SMILES: O=C1CCc2cc(Nc3cc(OC4CCOCC4)c([N+](=O)[O-])cc3Cl)ccc2N1
# Observed: cell-free assay
# Method: competition with immobilised ligand
# Concentration: 1 µM
target,remaining binding [%]
"Casein kinase I isoform alpha-like (CSNK1A1L, Homo sapiens, UniProt Q8N752)",84
"Tyrosine-protein kinase ABL1, non-phosphorylated (ABL1, Homo sapiens, UniProt P00519, F317L)",74
"Aurora kinase C (AURKC, Homo sapiens, UniProt Q9UQB9)",100
"MAP kinase-interacting serine/threonine-protein kinase 2 (MKNK2, Homo sapiens, UniProt Q9HBH9)",98
"Serine/threonine-protein kinase haspin (HASPIN, Homo sapiens, UniProt Q8TF76)",100

# Set 3
# Cell line: HaCaT
# Concentration: 100 µM
# Time: 60 h
SMILES,viability [%]
CC(=O)OCC(=O)[C@H]1CC[C@H]2[C@@H]3CCC4=CC(=O)CC[C@]4(C)[C@H]3CC[C@]12C,86.3
NCCCC[C@H](N[C@@H](CCc1ccccc1)C(=O)O)C(=O)N1CCC[C@H]1C(=O)O,126
CO[C@H]1/C=C/O[C@@]2(C)Oc3c(C)c(O)c4c(O)c(c(/C=N/N5CCN(C6CCCC6)CC5)c(O)c4c3C2=O)NC(=O)/C(C)=C\C=C\[C@H](C)[C@H](O)[C@@H](C)[C@@H](O)[C@@H](C)[C@H](OC(C)=O)[C@@H]1C,62
C=CCc1cc(OC)c(O)c(C(=O)NCCO)c1,141
CCOCC(O)COc1ccc(NC(=O)CC[S+](C)C)cc1 (stereo not shown),160
O=c1cc[nH]c(=O)[nH]1,148
Nc1nc(CC(=O)Nc2ccc(CCNC[C@H](O)c3ccccc3)cc2)cs1,95.7
Cc1cn[nH]c1,136

# Set 4
# Species: mouse
# Sample: microsomes or S9
# Concentration: 2 µM
# Time: 0.5 h
SMILES,remaining compound [%]
CO/C=C(/C(=O)OC)n1c(COc2c(C)cc(C)cc2C)noc1=O,68.4
CC(C)(C)NC(=O)NC(=O)CN1CCCC1CN1CCCCC1 (stereo not shown),97.7
O=C(Cc1c[nH]c2ccccc12)N1CCc2cc(-c3ccno3)ccc21,1.48
Clc1ccc(C2=NN(c3ccccc3)C(c3ccccc3Cl)C2)cc1 (stereo not shown),90.9
COc1ccc(C)cc1NC(=O)c1cc2c(=O)n3cccc(C)c3nc2n1Cc1ccccc1,60.8
O=c1ccn(-c2ccc(Cl)c(-c3ccc(Cl)cc3)c2)[nH]1,43.3
O=C1CC2CS(=O)(=O)CC2N1c1ccc(-c2nnc3n2CCCCC3)cc1 (stereo not shown),> 100
COC(=O)C12CC(CCC(C)=O)C(=O)N1CCc1c2n(C(=O)OC(C)(C)C)c2ccccc12 (stereo not shown),1.47

# Some of these lines once more (set 1):
target,remaining activity
"Hepatocyte growth factor receptor (MET, Homo sapiens, UniProt P08581)",102%
"Serine/threonine-protein kinase MRCK beta (CDC42BPB, Homo sapiens, UniProt Q9Y5S2)",90.8%
"Serine/threonine-protein kinase PAK 3 (PAK3, Homo sapiens, UniProt O75914)",92.1%
